# Measured values of several laboratories.
# Lines come from different studies, so protocols differ. Numbers after ± are the reported error.
SMILES,target,test,test system,conditions,scale,quantity,result
Cc1cc(Nc2nc(C[C@@]3(C(=O)O)CCN(Cc4cccc(Cl)c4F)[C@H](C)C3)cc(C)c2F)[nH]n1,"AURKA (Thr288 phosphorylation), mouse","AURKA phosphorylation, inhibitor, measured: phospho-AURKA Thr288","mouse, NCI-H446 xenograft, tumour","oral, 20 mg/kg single dose, 1 h",,inhibition,92.5%
C[C@@H](O)[C@H](NC(=O)[C@H](CO)NC(=O)[C@H](CO)NC(=O)[C@@H](N)CCCCN)C(=O)N[C@@H](CCCNC(=N)N)C(=O)NCC(=O)N[C@@H](CCCNC(=N)N)C(=O)N[C@@H](CCCCN)C(=O)N[C@@H](CO)C(=O)N[C@@H](CO)C(=O)N[C@@H](CCCNC(=N)N)C(=O)N[C@@H](CCCNC(=N)N)C(=O)N[C@@H](CCCCN)C(=O)N[C@@H](CCCCN)C(=O)O,MRGPRX2 human,"degranulation, agonist, measured: β-hexosaminidase release",LAD2,,,EC50,~10 µM
N=C(N)NCCC[C@H](N)C(=O)N1CCC[C@H]1C(=O)N[C@@H](CCCCN)C(=O)N1CCC[C@H]1C(=O)N[C@@H](CCC(N)=O)C(=O)N[C@@H](CCC(N)=O)C(=O)N[C@@H](Cc1ccccc1)C(=O)N[C@@H](Cc1ccccc1)C(=O)NCC(N)=O,"MRGPRX2, human","Ca2+ mobilization, agonist, Fura-2",LAD2 IgE-sensitized,37 °C,,EC50,3.5 µM
CCN(CCCCOc1ccc(CCC(=O)N2CCC(Cc3ccccc3)CC2)cc1OC)Cc1ccccc1,butyrylcholinesterase,dilution reversibility,,"0.1 × IC50, start of monitoring",reference: uninhibited enzyme,remaining activity,50.4%
COC[C@@H](NC(C)=O)C(=O)NCc1ccc(OCc2ccc(F)cc2)cc1,rat voltage-gated sodium channels,whole-cell patch clamp,rat embryonic cortical neurons,10 µM,,V1/2 of activation,-32.2 ± 1.9 mV
Cn1cc2cc1C(=O)NC[C@H](N)CC(=O)Nc1cn(C)c(n1)C(=O)Nc1cc(n(C)c1)C(=O)Nc1cc(n(C)c1)C(=O)Nc1cc(n(C)c1)C(=O)NC[C@H](N)CC(=O)Nc1cn(C)c(n1)C(=O)Nc1cc(n(C)c1)C(=O)Nc1cc(n(C)c1)C(=O)N2,androgen response element DNA duplex,DNA binding,,"2 µM, pH 7.0",reference: DNA alone,ΔTm,23.6 °C
O=C(CCCCCCC(=O)Nc1ccccc1N=Nc1ccccc1)NO,"class I HDACs, human",enzyme activity,HeLa nuclear extract,,,trans over cis activity ratio,~3
CC(=O)Nc1ccc2ccn(-c3cc(NS(C)(=O)=O)n4ncc(C#N)c4n3)c2c1,"CSNK2A1 and CSNK2A2, human","inactive, NanoBRET",,10 µM,,activity,inactive
CC(=O)N[C@H]1CNC(=O)c2cc(cn2C)NC(=O)c2cc(cn2C)NC(=O)c2cc(cn2C)NC(=O)c2nc(cn2C)NC(=O)C[C@@H](NC(C)=O)CNC(=O)c2cc(cn2C)NC(=O)c2cc(cn2C)NC(=O)c2cc(cn2C)NC(=O)c2nc(cn2C)NC(=O)C1,androgen response element DNA duplex,DNA binding,,"2 µM, pH 7.0",,Tm,82 °C
CCC(=O)C[C@@H](O)C[C@@H](C)C[C@H](NC(=O)[C@@H]1C[C@H](C)CN1C(=O)/C=C/[C@@H](C)CC)C(=O)N[C@H](C(=O)NC(C)(C)C(=O)N[C@@H](CC(C)C)C(=O)N[C@@H](CC(C)C)C(=O)NC(C)(C)C(=O)NC(C)(C)C(=O)NCCC(=O)N[C@@H](C)CNC)[C@H](O)C(C)C,mTORC1,"inhibitor, immunoblot",MDA-MB-453,"100 nM, 2 h",,phospho-S6K level,inhibited
O=C1c2ccccc2N(Cc2ccccc2)C12CCCC2,butyrylcholinesterase,,,10 µM,,remaining activity,75.9 ± 1.27%
CC(C)C[C@@H]1NC(=O)[C@H](Cc2ccc(O)cc2)NC(=O)[C@H](CC(N)=O)NC(=O)[C@H](CO)NC(=O)[C@@H](NC(=O)[C@@H]2CCCN2C(=O)[C@H](CC(N)=O)NC(=O)[C@@H](N)Cc2ccc(O)cc2)CSC1=O,AgrC-III,GFP reporter,"Staphylococcus epidermidis, agr group-III reporter",10 µM,,AgrC-III inhibition,inactive
Cl.Cl.Cl.Cl.Cl.Cl.Cl.Cl.Cl.Cl.Cl.Cl.NC[C@@H]1O[C@H](O[C@H]2[C@@H](O)[C@H](O[C@@H]3[C@@H](O)[C@H](N)C[C@H](N)[C@H]3O[C@H]3O[C@H](CN)[C@@H](O)[C@H](O)[C@H]3N)O[C@@H]2Cn2cc(COCCCCCCCCCCCCOCc3cn(C[C@H]4O[C@@H](O[C@@H]5[C@@H](O)[C@H](N)C[C@H](N)[C@H]5O[C@H]5O[C@H](CN)[C@@H](O)[C@H](O)[C@H]5N)[C@H](O)[C@@H]4O[C@H]4O[C@@H](CN)[C@@H](O)[C@H](O)[C@H]4N)nn3)nn2)[C@H](N)[C@@H](O)[C@@H]1O,HIV-1 TAR RNA,UV thermal denaturation,,"1 molar equivalents to RNA, pH 6.8, TAR RNA 1 µM per strand",,Tm,72.1 °C
N#Cc1ccc(CN2c3ccccc3C(=O)C23CCCC3)cc1,butyrylcholinesterase,,,10 µM,,remaining activity,88.4 ± 0.89%
CC(C)C[C@@H]1NC(=O)[C@H](CCCNC(=N)N)NC(=O)[C@H](CCCCN)NC(=O)[C@H](CC(=O)O)NC(=O)[C@H](CCCCN)NC(=O)[C@@H](CO)NC1=O,"MMP-14, human",,PANC-1 ADAM8-expressing,"1 µM, 24 h",reference: vehicle,enzyme activity,decreased
NC(=O)[C@H](CO)NC(=O)[C@@H]1CCCN1C(=O)[C@H](Cc1ccc(O)cc1)NC(=O)CNC(=O)[C@H](Cc1ccccc1)NC(=O)[C@@H](CCCNC(=O)CBr)NC(=O)[C@@H](N)Cc1ccc(O)cc1,mu opioid receptor,radioligand binding,CHO cells,with: 1 nM [3H]DAMGO,,IC50,0.00011 ± 2e-05 µM
Cl.Cl.Cl.Cl.Cl.Cl.Cl.Cl.Cl.Cl.Cl.Cl.NC[C@@H]1O[C@H](O[C@H]2[C@@H](O)[C@H](O[C@@H]3[C@@H](O)[C@H](N)C[C@H](N)[C@H]3O[C@H]3O[C@H](CN)[C@@H](O)[C@H](O)[C@H]3N)O[C@@H]2Cn2cc(COCCCCCCCCOCc3cn(C[C@H]4O[C@@H](O[C@@H]5[C@@H](O)[C@H](N)C[C@H](N)[C@H]5O[C@H]5O[C@H](CN)[C@@H](O)[C@H](O)[C@H]5N)[C@H](O)[C@@H]4O[C@H]4O[C@@H](CN)[C@@H](O)[C@H](O)[C@H]4N)nn3)nn2)[C@H](N)[C@@H](O)[C@@H]1O,HIV-1 TAR RNA,UV thermal denaturation,,"1 molar equivalents to RNA, pH 6.8, TAR RNA 1 µM per strand","reference: RNA alone, higher is more stabilization",ΔTm,5.4 °C
NC(=O)[C@H](CO)NC(=O)[C@@H]1CCCN1C(=O)[C@H](Cc1ccc(O)cc1)NC(=O)CNC(=O)[C@H](Cc1ccccc1)NC(=O)[C@@H](CCCN=C=S)NC(=O)[C@@H](N)Cc1ccc(O)cc1,mu opioid receptor,radioligand binding,,,reference: IC50 delta over IC50 mu,selectivity ratio,29
CCN(CC)CCCC(C)Nc1cc[n+]([Ru-]2[NH2+]CC[NH2+]2)c2cc(Cl)ccc12.Cc1ccc(C(C)C)cc1.F[P-](F)(F)(F)(F)F.F[P-](F)(F)(F)(F)F (stereo not shown),calf thymus DNA,thermal denaturation,,"0.5 equivalents per DNA, 1 h, pH 7.39, 25 °C, 25 mM NaClO4",,delta Tm,3.4 °C

# Repeated from above:
SMILES,target,test,test system,conditions,scale,quantity,result
CCN(CCCCOc1ccc(CCC(=O)N2CCC(Cc3ccccc3)CC2)cc1OC)Cc1ccccc1,butyrylcholinesterase,dilution reversibility,,"0.1 × IC50, start of monitoring",reference: uninhibited enzyme,remaining activity,50.4%
